{"data": "Results pooled from the literature", "target": "Dual specificity protein kinase CLK4 (CLK4, Homo sapiens, UniProt Q9HAZ1)", "note": "Protocols differ between the studies behind these lines.", "sequence of UniProt Q9HAZ1 (whole entry, looked up)": "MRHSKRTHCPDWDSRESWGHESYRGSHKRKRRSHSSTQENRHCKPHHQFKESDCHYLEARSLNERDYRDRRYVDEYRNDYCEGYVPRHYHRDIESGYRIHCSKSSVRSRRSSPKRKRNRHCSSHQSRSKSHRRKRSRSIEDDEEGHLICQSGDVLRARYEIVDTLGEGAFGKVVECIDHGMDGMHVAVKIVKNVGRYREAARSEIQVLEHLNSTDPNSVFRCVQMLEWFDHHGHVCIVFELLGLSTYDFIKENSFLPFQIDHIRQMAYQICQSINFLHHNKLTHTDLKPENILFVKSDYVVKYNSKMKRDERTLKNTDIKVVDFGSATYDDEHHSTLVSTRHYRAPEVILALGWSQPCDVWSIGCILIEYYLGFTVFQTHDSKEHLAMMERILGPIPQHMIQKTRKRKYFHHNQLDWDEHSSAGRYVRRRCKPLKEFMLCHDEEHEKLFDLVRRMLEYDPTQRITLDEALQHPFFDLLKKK"}
{"SMILES": "CNC(=O)C1CCN(c2cc(C)c(F)cc2NC(=O)c2ccc(-c3cc(O)ccc3C)c(C)c2)CC1", "test": "binding, competition with immobilised ligand", "setting": "1 µM", "endpoint": "remaining binding", "result": "80%"}
{"SMILES": "CC(C)=CC1OC(C)(C)C2C=C3C(=O)C(Cl)=CC(O)C3C3C(O)C4OC4C(=O)C132 (stereo not shown)", "test": "cell-free assay, competition with immobilised ligand", "setting": "10 µM", "endpoint": "remaining binding", "result": "76%"}
{"SMILES": "COc1cc(Nc2nccc(-c3cnn4nc(OC)ccc34)n2)cc(C(F)(F)F)c1", "test": "binding, competition with immobilised ligand", "setting": "1 µM", "endpoint": "remaining binding", "result": "13%"}
{"SMILES": "NC(=O)C[C@H]1CCc2sc3ncnc(O[C@H]4CC[C@H](N5CCOCC5)CC4)c3c21", "test": "enzyme activity, inhibitor", "setting": "10 µM", "endpoint": "inhibition", "result": "64%"}
{"SMILES": "CCn1cc(C(=O)O)c(=O)c2c(N)c(F)c(NC3CCCCC3)cc21", "test": "kinase activity", "setting": "0.1 µM, added: ATP at Km", "endpoint": "inhibition", "result": "3.8%"}
{"SMILES": "Cc1cccc(O[C@H]2CCC[C@@H](C(C)CNCc3ccncc3)C2)c1 (relative stereo)", "test": "enzyme activity, inhibitor", "setting": "10 µM", "endpoint": "inhibition", "result": "0%"}
{"SMILES": "C=CC(=O)Nc1cccc(-c2cnc3[nH]cc(C(=O)NC(C)(C)C)c3n2)c1", "test": "kinase activity", "setting": "0.1 µM", "endpoint": "inhibition", "result": "103%"}
{"SMILES": "Cc1ccc(-c2c(/C=C(\\C#N)C(=O)NC(C)C)n(CCCO)c3ncnc(N)c23)cc1", "test": "cell-free assay, competition with immobilised ligand", "setting": "1 µM", "endpoint": "remaining binding", "result": "100%"}
{"SMILES": "CNC(=O)C[C@H](Cc1ccc(C#N)cc1)NC(=O)c1cc(-c2ccc(CN[C@H](C)c3ccc(C)cc3)o2)ccc1Cl", "test": "enzyme activity, inhibitor", "setting": "1 µM", "endpoint": "activity vs control", "result": "96%"}
{"SMILES": "CN1CCN(Cc2ccc(-c3ccc(CO[C@H]4CCC[C@@H]4NC(=O)c4cc(-c5cnn(C)c5)cnc4N)cc3)cc2)CC1", "test": "enzyme activity, inhibitor", "setting": "0.1 µM", "endpoint": "inhibition", "result": "-2%"}
{"SMILES": "C=CC(=O)N1CCCC(n2c(=O)c3ncccc3n(Cc3ccc(Oc4ccccc4)cc3)c2=O)C1 (stereo not shown)", "test": "cell-free assay, competition with immobilised ligand", "setting": "1 µM", "endpoint": "remaining binding", "result": "83%"}
{"SMILES": "CNC1C[S+]2CC[S+]3CC[S+](C1)[Ru-4]321([N]=C=S)[n]2c3ccc(OC)cc3c3c4c(c5cc(F)c[n+]1c5c32)C(=O)NC4=O (stereo not shown)", "test": "KinomeScan", "setting": "0.1 µM", "how to read": "baseline: untreated", "endpoint": "remaining binding", "result": "50%"}
{"SMILES": "Cc1cnc2nc1Nc1cccc(c1)COC/C=C/COCc1cc(ccc1OCCN1CCOCC1)N2", "test": "binding", "setting": "0.1 µM", "endpoint": "remaining binding", "result": "97%"}
{"note": "A few entries again:"}
{"SMILES": "CC(C)=CC1OC(C)(C)C2C=C3C(=O)C(Cl)=CC(O)C3C3C(O)C4OC4C(=O)C132 (stereo not shown)", "test": "cell-free assay, competition with immobilised ligand", "setting": "10 µM", "endpoint": "remaining binding", "result": "76%"}
{"SMILES": "Cc1cccc(O[C@H]2CCC[C@@H](C(C)CNCc3ccncc3)C2)c1 (relative stereo)", "test": "enzyme activity, inhibitor", "setting": "10 µM", "endpoint": "inhibition", "result": "0%"}
